Results from different studies.
Parts stem from different laboratories: compare values within a part only. Substitutions count along the parent as printed.

Sample 1 — technique: protein-binding microarray; molecule type: double-stranded DNA, one strand shown; medium: in vitro; concentration: 2540 nM top; setting: 60-bp whole probe; added: salmon DNA 0.4 mg/ml; reference: random background probes; direction: higher = stronger binding; constant ends, left off below: GCCTAGCAC … GTCTTGATTCGCTTGACGCTGCTG
Target: Interferon regulatory factor 3, full length, phosphomimetic (IRF3, Homo sapiens, UniProt Q14653, residues 1-427, S386D/S396D/S398D/S402D/T404D/S405D)
Construct (chain): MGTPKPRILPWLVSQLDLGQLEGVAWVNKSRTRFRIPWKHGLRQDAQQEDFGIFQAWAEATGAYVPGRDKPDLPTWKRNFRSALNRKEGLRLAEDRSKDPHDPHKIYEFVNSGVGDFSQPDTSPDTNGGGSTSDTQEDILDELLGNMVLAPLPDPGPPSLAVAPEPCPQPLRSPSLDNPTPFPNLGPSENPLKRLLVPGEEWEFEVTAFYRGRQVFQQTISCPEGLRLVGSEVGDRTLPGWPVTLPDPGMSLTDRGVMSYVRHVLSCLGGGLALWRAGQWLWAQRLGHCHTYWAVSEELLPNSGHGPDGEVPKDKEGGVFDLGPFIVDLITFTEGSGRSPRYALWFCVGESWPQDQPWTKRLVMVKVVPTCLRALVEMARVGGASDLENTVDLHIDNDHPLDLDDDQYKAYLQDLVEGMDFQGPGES
Strand | fitted relative affinity [z-score]
TTAGGACTGGGTATCAGTTAGTGCTAG | -0.0309
TTAGATCTCAGTCTCGCTTAGTGCTAG | 0.426
TTAGGACTGGGGACTGAGTTAGTGCTA | -0.978
CGACATCTGCAAGATCCACAAGTGCTA | 0.124
GACGGACTGGACTATGGGGACGTGCTA | -0.629
GACGTTTTCGGGACTGGGGACGTGCTA | 1.94
GACGGTTTCGGTTCCGAGACGTGCTAG | 9.44
GACGGTTTCGGACTGGGCACGTGCTAG | 4.59
TTAGGACTGCTTTTCCTTTGGTGCTAG | 0.368

Sample 2 — target: CCNE1, cyclin fold, Cln2 fusion (human); technique: yeast growth competition, sequencing; medium: yeast; setting: strong parent motif; reference: not given; direction: higher = stronger binding
Starting sequence: TICRR docking peptide (human); TKVRRNLFNQELL
Variant | normalised enrichment score
TKARRNLFNQELL [V3A] | 0.43
TKVRRNLFNQELA [L13A] | 2.17
TKVRRNLFNQEAL [L12A] | 1.34
TKVARNLFNQELL [R4A] | 0.585
TKVRRNLLNQELL [F8L] | 0.758
TKVRRNLANQELL [F8A] | -0.276
TKVRRNLFNAELL [Q10A] | 1.29

Sample 3 — target: CEP164, C-terminal peptide (human); technique: DHFR complementation, deep sequencing; medium: yeast; reference: wild type; direction: higher = weaker binding
Setting: single substitutions, model-inferred values
Starting sequence: PDZK1, PDZ domain 2 (human); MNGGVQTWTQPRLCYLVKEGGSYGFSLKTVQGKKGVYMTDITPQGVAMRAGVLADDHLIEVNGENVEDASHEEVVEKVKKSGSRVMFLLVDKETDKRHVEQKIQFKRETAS; partner HNRVKVYRF
Variant | binding free energy change [kcal/mol]
K80Q | 0.487
M86S | -0.284
N62A | 1.14
Q6S | -0.0127
K102Q | -0.107
G82Q | 0.624
A110L | -0.141

Mixed results
Molecule | target | assay | test system | conditions | scale | quantity | value
PhoQ, residues 284 288 289 292 302 303 SSLVEF | PhoP, residues 12 14 15 18 19 LYFRQ (Escherichia coli, UniProt P23836) | Sort-seq, measured: YFP reporter | E. coli | PhoQ-PhoP variant library, added: 10 µM Mg2+ | reference: high Mg2+ state, higher = stronger signaling | fold induction | 17.2

Some of these lines once more (sample 1):
Strand | fitted relative affinity [z-score]
GACGTTTTCGGGACTGGGGACGTGCTA | 1.94
GACGGTTTCGGTTCCGAGACGTGCTAG | 9.44
